Results pooled from the literature.
Compare with care: the assays were run in different laboratories. ± gives the spread as reported.
Sctr: Sctr (Rattus norvegicus, UniProt P23811)
Sequence of UniProt P23811 (whole entry, looked up): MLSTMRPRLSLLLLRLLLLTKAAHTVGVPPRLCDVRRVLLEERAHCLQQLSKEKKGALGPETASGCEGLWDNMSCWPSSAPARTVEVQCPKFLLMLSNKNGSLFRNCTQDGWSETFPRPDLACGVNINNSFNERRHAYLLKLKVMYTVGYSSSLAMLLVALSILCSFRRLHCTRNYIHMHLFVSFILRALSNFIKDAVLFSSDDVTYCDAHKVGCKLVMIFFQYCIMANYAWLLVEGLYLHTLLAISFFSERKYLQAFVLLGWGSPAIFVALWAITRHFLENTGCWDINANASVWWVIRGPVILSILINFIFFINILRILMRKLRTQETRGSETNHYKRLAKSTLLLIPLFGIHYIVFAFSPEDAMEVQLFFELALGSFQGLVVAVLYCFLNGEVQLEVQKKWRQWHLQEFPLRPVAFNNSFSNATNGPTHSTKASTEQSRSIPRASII
FFAR2: Free fatty acid receptor 2 (FFAR2, Homo sapiens, UniProt O15552)
Sequence of UniProt O15552 (whole entry, looked up): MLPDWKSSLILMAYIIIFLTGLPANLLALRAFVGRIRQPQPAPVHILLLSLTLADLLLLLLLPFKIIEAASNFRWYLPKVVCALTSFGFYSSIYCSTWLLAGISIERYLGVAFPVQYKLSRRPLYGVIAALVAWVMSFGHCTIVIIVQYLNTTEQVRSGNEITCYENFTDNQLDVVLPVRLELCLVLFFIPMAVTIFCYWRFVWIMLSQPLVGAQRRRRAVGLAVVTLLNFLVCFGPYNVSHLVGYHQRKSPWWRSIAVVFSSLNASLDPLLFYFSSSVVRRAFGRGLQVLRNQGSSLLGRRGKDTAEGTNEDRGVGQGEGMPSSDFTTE
Sequence of UniProt Q6DWJ6 (whole entry, looked up): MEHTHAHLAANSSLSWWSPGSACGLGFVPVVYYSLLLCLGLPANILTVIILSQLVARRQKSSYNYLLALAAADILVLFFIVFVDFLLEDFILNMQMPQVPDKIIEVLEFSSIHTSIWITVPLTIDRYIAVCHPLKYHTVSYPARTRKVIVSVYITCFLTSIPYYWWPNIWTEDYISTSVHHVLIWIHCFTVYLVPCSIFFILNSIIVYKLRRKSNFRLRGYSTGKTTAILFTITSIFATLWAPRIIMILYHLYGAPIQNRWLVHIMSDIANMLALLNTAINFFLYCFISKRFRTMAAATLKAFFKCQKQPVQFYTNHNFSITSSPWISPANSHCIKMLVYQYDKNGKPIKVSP
Sequence of UniProt Q14011 (whole entry, looked up): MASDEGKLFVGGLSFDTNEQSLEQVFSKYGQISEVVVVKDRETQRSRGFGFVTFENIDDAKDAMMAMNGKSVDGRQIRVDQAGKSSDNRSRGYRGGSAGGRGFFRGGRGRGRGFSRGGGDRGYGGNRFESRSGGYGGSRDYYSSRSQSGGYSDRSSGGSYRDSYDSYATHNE
Sequence of UniProt P30550 (whole entry, looked up): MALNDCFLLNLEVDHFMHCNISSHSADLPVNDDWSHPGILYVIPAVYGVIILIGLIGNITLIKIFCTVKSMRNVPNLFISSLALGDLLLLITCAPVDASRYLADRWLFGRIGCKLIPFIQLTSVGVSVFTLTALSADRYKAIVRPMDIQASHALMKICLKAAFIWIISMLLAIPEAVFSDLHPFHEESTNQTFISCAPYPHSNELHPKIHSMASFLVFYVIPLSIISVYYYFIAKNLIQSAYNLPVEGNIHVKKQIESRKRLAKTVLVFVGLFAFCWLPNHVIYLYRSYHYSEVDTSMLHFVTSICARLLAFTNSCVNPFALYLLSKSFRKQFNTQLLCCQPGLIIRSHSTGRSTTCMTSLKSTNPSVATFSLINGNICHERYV
Sequence of UniProt Q61143 (whole entry, unmodified, looked up): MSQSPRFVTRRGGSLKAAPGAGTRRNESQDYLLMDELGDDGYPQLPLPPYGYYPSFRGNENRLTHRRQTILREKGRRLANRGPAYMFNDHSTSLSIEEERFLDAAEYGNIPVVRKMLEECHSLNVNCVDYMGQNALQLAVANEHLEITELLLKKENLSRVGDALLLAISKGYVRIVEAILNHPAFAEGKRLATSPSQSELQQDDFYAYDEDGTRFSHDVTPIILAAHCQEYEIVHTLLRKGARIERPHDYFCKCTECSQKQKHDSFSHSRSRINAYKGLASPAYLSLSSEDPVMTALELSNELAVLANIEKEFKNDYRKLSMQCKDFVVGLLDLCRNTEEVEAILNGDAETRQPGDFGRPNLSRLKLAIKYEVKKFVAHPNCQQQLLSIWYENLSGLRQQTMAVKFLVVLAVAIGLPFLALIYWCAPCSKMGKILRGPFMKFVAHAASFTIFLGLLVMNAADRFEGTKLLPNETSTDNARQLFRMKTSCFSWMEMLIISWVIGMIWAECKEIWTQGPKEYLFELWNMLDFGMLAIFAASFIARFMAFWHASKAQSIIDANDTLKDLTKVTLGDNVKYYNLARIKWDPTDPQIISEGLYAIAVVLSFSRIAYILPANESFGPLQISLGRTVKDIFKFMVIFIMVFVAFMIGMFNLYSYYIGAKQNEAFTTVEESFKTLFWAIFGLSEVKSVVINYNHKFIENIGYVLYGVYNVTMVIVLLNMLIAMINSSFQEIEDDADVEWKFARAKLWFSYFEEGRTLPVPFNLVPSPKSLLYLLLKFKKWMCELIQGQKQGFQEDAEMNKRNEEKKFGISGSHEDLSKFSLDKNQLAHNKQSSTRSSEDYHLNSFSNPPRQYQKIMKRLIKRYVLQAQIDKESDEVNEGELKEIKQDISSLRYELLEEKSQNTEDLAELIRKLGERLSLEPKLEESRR

The EC50 of `CC(C)C[C@H](NC(=O)CNC(=O)[C@H](CCC(N)=O)NC(=O)[C@H](CC(C)C)NC(=O)[C@H](CC(C)C)NC(=O)[C@H](CCCNC(=N)N)NC(=O)[C@H](CCC(N)=O)NC(=O)[C@H](C)NC(=O)[C@H](CCCNC(=N)N)NC(=O)[C@H](C)NC(=O)[C@H](CO)NC(=O)[C@H](CC(=O)O)NC(=O)[C@H](CCC(N)=O)NC(=O)[C@H](CC(C)C)NC(=O)[C@H](CCCNC(=N)N)NC(=O)[C@H](CO)NC(=O)[C@H](CC(C)C)NC(=O)[C@H](CCC(=O)O)NC(=O)[C@H](CO)NC(=O)[C@@H](NC(=O)[C@H](Cc1ccccc1)NC(=O)[C@@H](NC(=O)CNC(=O)[C@H](CC(=O)O)NC(=O)[C@H](CO)NC(=O)[C@@H](N)Cc1c[nH]cn1)[C@@H](C)O)[C@@H](C)O)C(=O)N[C@H](C(N)=O)C(C)C` is reported as 34.5 ± 5.5 nM (Sctr; cAMP production, agonist; CHO-SecR; 30 min, 37 °C, with: 1 mM IBMX).
`CC(C)CC(=O)O` has an EC50 of 759000 nM (FFAR2; agonist).
The EC50 of `CCCC[C@H](NC(=O)[C@H](Cc1ccccc1)NC(=O)[C@H](Cc1c[nH]cn1)NC(=O)CCNC(=O)[C@@H](NC(=O)[C@H](C)NC(=O)[C@H](Cc1c[nH]c2ccccc12)NC(=O)[C@H](CCC(N)=O)NC(=O)[C@H](N)Cc1ccccc1)C(C)C)C(N)=O` is reported as 0.36 ± 0.01 nM (Gastrin-releasing peptide receptor (GRPR, Homo sapiens, UniProt P30550); inositol phosphate formation, agonist; HuTu80; 45 min, 37 °C; relative to: 1 µM GRP).
`O=P(O)(O)O[C@@H]1[C@@H](O)[C@H](O)[C@H](O)[C@H](O)[C@H]1OP(=O)(O)O` has an EC50 of 8050 nM (Inositol 1,4,5-trisphosphate-gated calcium channel ITPR1 (Itpr1, Rattus norvegicus, UniProt P29994, del318-332/R568Q); Ca2+ release, agonist; permeabilized DT40 cells).
With `CSCC[C@H](NC(=O)[C@H](CO)NC(=O)[C@H](Cc1ccc(O)cc1)NC(=O)[C@@H](N)CO)C(=O)N[C@@H](CCC(=O)O)C(=O)N[C@@H](Cc1c[nH]cn1)C(=O)N[C@@H](Cc1ccccc1)C(=O)N[C@@H](CCCNC(=N)N)C(=O)N[C@@H](Cc1c[nH]c2ccccc12)C(=O)O` the EC50 was 596 nM (Probable G-protein coupled receptor 139 (GPR139, Homo sapiens, UniProt Q6DWJ6); calcium signal, agonist, fluorescence).
The EC50 of `O=C(c1cc2c(s1)CCCCC2)N1CCC(n2c(=O)[nH]c3ccccc32)CC1` is reported as 2610 ± 260 nM (Short transient receptor potential channel 6 (Trpc6, Mus musculus, UniProt Q61143, V709A); channel activation, agonist, whole-cell patch clamp).
`C/C=C(/C)C(=O)O` has an EC50 of 195000 nM (FFAR2; agonist).
With `CC(C)C[C@H](NC(=O)CNC(=O)[C@H](CCC(N)=O)NC(=O)[C@H](CC(C)C)NC(=O)[C@H](CC(C)C)NC(=O)[C@H](CCCN=C(N)N)NC(=O)[C@H](CCC(N)=O)NC(=O)[C@H](CC(C)C)NC(=O)[C@H](CCCN=C(N)N)NC(=O)[C@H](C)NC(=O)[C@H](CO)NC(=O)[C@H](CC(=O)O)NC(=O)[C@H](CCC(N)=O)NC(=O)[C@H](CC(C)C)NC(=O)[C@H](CCCN=C(N)N)NC(=O)[C@H](CO)NC(=O)[C@H](CC(C)C)NC(=O)[C@H](CCC(=O)O)NC(=O)[C@H](CO)NC(=O)[C@@H](NC(=O)[C@H](Cc1ccccc1)NC(=O)[C@@H](NC(=O)CNC(=O)[C@H](CC(=O)O)NC(=O)[C@H](CO)NC(=O)[C@@H](N)Cc1cnc[nH]1)[C@@H](C)O)[C@@H](C)O)C(=O)N[C@H](C(N)=O)C(C)C` the EC50 was 0.05 nM (Sctr; cAMP production, agonist; CHO-SecR; 30 min, 37 °C, with: 1 mM IBMX).
The EC50 of `COc1ccccc1C(=O)Nc1nc(-c2ccc(C)cc2)c(NC(C)=O)s1` is reported as 2700 nM (CIRBP (Homo sapiens, UniProt Q14011); thermal stabilisation, cellular thermal shift; LOX-IM-VI overexpressing GFP-CIRBP; 3 h, 57 °C).

For quick reference, copied from above:
The EC50 of `O=C(c1cc2c(s1)CCCCC2)N1CCC(n2c(=O)[nH]c3ccccc32)CC1` is reported as 2610 ± 260 nM (Short transient receptor potential channel 6 (Trpc6, Mus musculus, UniProt Q61143, V709A); channel activation, agonist, whole-cell patch clamp).
